Experimental data from different studies.
Each line is one published result; not all experiments were run side by side.
SLC6A4: Sodium-dependent serotonin transporter (SLC6A4, Homo sapiens, UniProt P31645)
UniProt P31645, sequence (whole entry, unmodified, looked up): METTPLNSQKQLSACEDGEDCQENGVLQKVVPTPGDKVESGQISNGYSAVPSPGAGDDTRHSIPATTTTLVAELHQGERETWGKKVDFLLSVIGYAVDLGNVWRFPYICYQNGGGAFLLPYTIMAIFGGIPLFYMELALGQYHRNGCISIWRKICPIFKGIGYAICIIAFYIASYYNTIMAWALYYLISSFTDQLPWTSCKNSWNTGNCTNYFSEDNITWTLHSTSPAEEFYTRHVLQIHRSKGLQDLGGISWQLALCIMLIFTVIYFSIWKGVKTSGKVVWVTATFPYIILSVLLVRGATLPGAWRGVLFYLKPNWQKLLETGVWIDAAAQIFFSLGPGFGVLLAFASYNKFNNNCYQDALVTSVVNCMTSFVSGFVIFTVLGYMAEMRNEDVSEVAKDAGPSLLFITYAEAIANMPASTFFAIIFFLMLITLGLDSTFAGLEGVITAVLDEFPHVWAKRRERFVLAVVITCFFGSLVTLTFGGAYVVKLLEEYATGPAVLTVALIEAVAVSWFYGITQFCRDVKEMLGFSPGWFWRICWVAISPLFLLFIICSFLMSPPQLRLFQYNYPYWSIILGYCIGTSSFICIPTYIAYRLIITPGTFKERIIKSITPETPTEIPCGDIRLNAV

CNC(C)Cc1ccc2c(c1)OCO2 (stereo not shown)  IC50 (SLC6A4; transporter uptake, inhibitor, radiometric): 0.118 µM
C=C[C@H]1CN2CC[C@H]1C[C@H]2[C@H](O)c1ccnc2ccccc12  Ki (Sodium-dependent serotonin transporter (SLC6A4, Homo sapiens, UniProt P31645, Y95F); transporter uptake, inhibitor, radiometric): 15 µM
C[C@@H]1NC(C)(C)CO[C@H]1c1cccc(Br)c1  IC50 (SLC6A4; transporter uptake, inhibitor, radiometric): 0.39 µM
CC(C(=O)c1ccc2c(c1)OCO2)N(C)C (stereo not shown)  IC50 (SLC6A4; transporter uptake, inhibitor, radiometric): > 9.2 µM
CNC(C)Cc1ccc2c(c1)OCO2 (stereo not shown)  Ki (SLC6A4; ligand displacement, radioligand; cell membranes): 14.7 µM
CC(N)Cc1cccc(C(F)(F)F)c1 (single isomer, unassigned; (+))  EC50 (SLC6A4; induced current, oocyte voltage clamp; holding potential -60 mV): ~10 µM
CCNC(C)C(=O)c1ccc(Cl)cc1 (stereo not shown)  EC50 (SLC6A4; [3H]5-HT release, releaser; HEK293 expressing target): 0.78 µM
C[C@H]1[C@H](c2cccc(Cl)c2)OCC(C)(C)N1C  IC50 (SLC6A4; transporter uptake, inhibitor, radiometric): 0.54 µM
CCCNC(C)C(=O)c1ccc2c(c1)OCO2 (stereo not shown)  IC50 (SLC6A4; transporter uptake, inhibitor, radiometric): 2.25 µM
CCC[C@@H]1NC(C)(C)CO[C@H]1c1cccc(Cl)c1  IC50 (SLC6A4; transporter uptake, inhibitor, radiometric): 0.3 µM
CCc1ccc2[nH]c3nc(SCCNS(=O)(=O)c4ccc(NC(C)=O)cc4)nnc3c2c1  IC50 (SLC6A4; transporter uptake, inhibitor, radiometric): 192 µM
CN1[C@H]2CC[C@@H]1[C@@H](C(=O)N1CCCC1)[C@@H](c1ccc(I)cc1)C2  IC50 (SLC6A4; serotonin reuptake, inhibitor; HEK293 transfected with SERT): > 10 µM
CC[C@@H]1NC(C)(C)CO[C@H]1c1cccc(Cl)c1  IC50 (SLC6A4; transporter uptake, inhibitor, radiometric): 1.8 µM

Repeated from above:
C[C@@H]1NC(C)(C)CO[C@H]1c1cccc(Br)c1  IC50 (SLC6A4; transporter uptake, inhibitor, radiometric): 0.39 µM
